# Measured values from different studies.
# Protocols differ between the studies behind these lines. Several values in a cell are separate wells, animals, samples, runs or records. ± marks the error that the study gave.
SMILES,target or system,test,system,conditions,scale,measurement,result
CCN(CC)C(=O)[C@@H]1C=C2c3cccc4c3c(cn4C(=O)c3ccco3)C[C@H]2N(C)C1,,magnetometer,"C57BL/6J mouse, male","intraperitoneal, 0.25 mg/kg, 30 min session",,head-twitch response count,32.6
Cc1cc(Oc2nc(N3CC[C@@H](c4ccncc4)C3)ncc2F)[nH]n1,JEG-3,cell proliferation,,,,IC50,28.8 µM
CC(C)CC(C(=O)N1CC2(CC1C#N)C(=O)Nc1ccccc12)N(C)C(=O)c1cc2c(F)cc(F)c(F)c2[nH]1 (centres unmarked),human coronavirus 229E,viral replication,MRC-5,0.001563 µM,,inhibition,57%
Cc1cc(C(=O)Nc2nc3cccc(C)c3n2[C@H]2CCCCN(C(=O)/C=C/CN(C)C)C2)ccn1,Trypanosoma brucei,,2T1 CLK1 over-expression induced,concentration not given,,parasite density,680000 parasites/mL and 640000 parasites/mL and 610000 parasites/mL
NCCO.O=C(O)C(Cl)Cl,Chenopodium album,herbicidal activity,,"15 mg/mL, 21 days, post-emergence greenhouse",,inhibition,0%
CC(C)(C)C(=O)OCOP(=O)(OCOC(=O)C(C)(C)C)C1CCCN(O)C1=O (centres unmarked),SR,,,,,log GI50,-6.36 log M
O=C1NC2(CC2)COc2ncc(F)cc2[C@H]2COCCN2c2ccn3ncc1c3n2,,,"Sprague-Dawley rat, male, serum","oral, 10 mg/kg/day, 4 weeks daily, end of recovery period",,aspartate aminotransferase activity,99.2 ± 26.7 U/L
COc1ccccc1-c1n[nH]c2nc(NC3CCN(C(=O)Cc4ccc(F)cc4F)CC3)ncc12,,"bead binding, competition bead pull-down, item: LMJF.34.3980",Leishmania donovani extract,10 µM,baseline: vehicle,relative abundance,1.35
CCN(CC)C(=O)[C@@H]1C=C2c3cccc4c3c(cn4C(=O)c3cccs3)C[C@H]2N(C)C1,,"head-twitch response, magnetometer detection",mouse C57BL/6J male,intraperitoneal,,ED50,1.53 µmol/kg
Cc1ccc(NS(=O)(=O)c2c(C(=O)N3CCCCCC3)c(C)n(C)c2C)c(Cl)c1,Human alphaherpesvirus 1,viral infection,HaCaT,"0.4115 µM, 36 h",baseline: untreated,infection,98% and 97.5% and 107%
COc1ccccc1-c1n[nH]c2nc(N[C@H]3CC[C@H](NS(=O)(=O)CC(C)C)CC3)ncc12,,"bead binding, competition bead pull-down, item: LINJ.30.0990",Leishmania donovani extract,10 µM,baseline: vehicle,relative abundance,1.05

# Excerpt of the above:
SMILES,target or system,test,system,conditions,scale,measurement,result
CC(C)CC(C(=O)N1CC2(CC1C#N)C(=O)Nc1ccccc12)N(C)C(=O)c1cc2c(F)cc(F)c(F)c2[nH]1 (centres unmarked),human coronavirus 229E,viral replication,MRC-5,0.001563 µM,,inhibition,57%
